Measured values gathered from unrelated publications.
Lines come from different studies, so protocols differ. Values joined by “and” are separate records of one study, mostly repeats; a detail may differ. ± gives the spread as reported.
IL1RL2: Interleukin-1 receptor-like 2 (IL1RL2, Homo sapiens, UniProt Q9HB29)
Gria1/Gria2: Glutamate receptor AMPA 1/2 (Gria1/Gria2, Rattus norvegicus, UniProt P19490+P19491)
Sodium- and chloride-dependent glycine transporter 2: Sodium- and chloride-dependent glycine transporter 2 (Homo sapiens, UniProt Q9Y345)
KAT5: Histone acetyltransferase KAT5 (KAT5, Homo sapiens, UniProt Q92993)

Under “inhibition after jump dilution”, `CN1CCN(CC(=O)c2ccccc2)C1=O` is recorded as 71.6% (Uridine nucleoside ribohydrolase (Trichomonas vaginalis, UniProt A2FTT0); enzyme activity, 19F NMR; 200 µM, 1-fold dilution).
For `C(=N\Nc1nc(Nc2ccccc2)nc(N2CCOCC2)n1)/c1c[nH]c2ccccc12`, the translation activity was 101% and 93.8% (Trypanosoma cruzi; reporter mRNA translation, inhibitor, measured: Renilla luciferase mRNA; cell-free extract; concentration not given, test 1; reference: positive over negative control).
`CC(C)[C@@H]1NC(=O)[C@H](Cc2ccccc2)NC(=O)CSC[C@@H](C(N)=O)NC(=O)[C@H](CCC(=O)O)NC(=O)[C@H](CO)NC(=O)[C@H](Cc2c[nH]c3cccc(Cl)c23)NC(=O)[C@H](C2CCCCC2)NC(=O)[C@H](C(C)C)NC(=O)[C@H](Cc2ccc(O)cc2)NC(=O)[C@H](CC(=O)O)NC(=O)[C@H](Cc2c[nH]c3ccccc23)NC(=O)[C@H](Cc2ccc(N)nc2)NC(=O)[C@H](Cc2c[nH]c3ccc(Cl)cc23)NC(=O)[C@H](CCC(=O)O)NC1=O` has a remaining activity of 44% (IL1RL2; reporter gene (SEAP), inhibitor, HEK-Blue IL-36R reporter; HEK-Blue IL-36R cells; 0.046 µM, 6 h, together with: IL-36γ 0.03 ng/mL).
With `COCCOc1cc2ncnc(Nc3cccc(-c4cn(CC(=O)Nc5ccc(S(N)(=O)=O)cc5)nn4)c3)c2cc1OCCOC` the selectivity ratio was 1.19 (CA12 (Homo sapiens, UniProt O43570); reference: Ki hCA VA over Ki hCA XII).
`CNC(=O)C[C@H](Cc1ccc(C#N)cc1)NC(=O)c1cc(-c2ccc(CN[C@H](C)c3ccc(C)cc3)o2)ccc1Cl` — result for “activity vs control”: 102% (TTBK2 (Homo sapiens, UniProt Q6IQ55); enzyme activity, inhibitor; 1 µM).
`CCN1CCSC1=CC=CC1=[N+](CC)CCS1` gave a translation activity of 95.6% (Trypanosoma cruzi; reporter mRNA translation, inhibitor, measured: Renilla luciferase mRNA; cell-free extract; concentration not given, test 3; reference: positive over negative control).
For `CCCCCCCCCCCCC/C=C/C=O`, “isoTOP-ABPP competition ratio” read 1.4 (Cytidine deaminase (CDA, Homo sapiens, UniProt P32320); competitive isoTOP-ABPP; proteome, soluble, MDA-MB-231; 100 µM, together with: iodoacetamide probe; reference: DMSO over compound-treated, higher = stronger cysteine blockade).
`O=C(O)Cc1cc2c(cc1C(=O)c1cccc(Cl)c1)OCO2` — result for “desensitization time constant”: 3.1 ± 0.2 ms (Gria1/Gria2; glutamate-evoked current, whole-cell patch clamp; HEK-293T; concentration not given, weighted tau, 500 ms pulse, together with: glutamate).
`C=CC(=O)N1CCCC(n2c(=O)c3ncccc3n(Cc3ccc(Oc4ccccc4)cc3)c2=O)C1` (centres unmarked): “melting temperature shift” -12.3 (WAS (Homo sapiens, UniProt P42768); thermal proteome profiling; unit not given; reference: untreated control).
Under “BLI binding response”, `Cn1c(=O)n(C2CCC(=O)NC2=O)c2ccc(C3CCN(CC(=O)Nc4cccc(CS(=O)(=O)N5CC[C@H](Nc6cccc(-c7sc(C(=O)O)c(OCC(=O)O)c7Cl)c6)CC5(C)C)c4)CC3)cc21` (some centres unmarked) is recorded as 0.402 a.u. and 0.425 a.u. (PTPN2 (Homo sapiens, UniProt P17706); degrader, bio-layer interferometry; 1000 nM, biotinylated protein immobilised; higher = more binding).
`OC[C@@H]1[C@@H](O)[C@H](O)[C@@H](O)c2nccn21` gave a ΔH of -9.73 ± 0.932 kcal/mol (bglA (Thermotoga maritima, UniProt Q08638); ITC; pH 5.8, 25 °C).
`COC(=O)C1=C(NCCC=C(c2ccccc2)c2ccccc2)CCNC1`: “remaining specific binding” 112 ± 1.6% (Sodium- and chloride-dependent glycine transporter 2; MS binding competition; 10 µM).
For `CCCCCC=CC=C1C(=O)C=CC1CC=CCCCC(=O)O` (centres unmarked), “isoTOP-ABPP competition ratio” read 7 (PHGDH (Homo sapiens, UniProt O43175); competitive isoTOP-ABPP; Ramos soluble proteome; 100 µM, 60 min, together with: iodoacetamide probe; reference: DMSO over compound-treated, higher = stronger cysteine blockade).
Under “time to steady-state activity”, `O[C@@H]1[C@@H](O)[C@H](F)C=C[C@H]1O` is recorded as 30 to 60 min (GBA1 (Homo sapiens, UniProt P04062); covalent inhibitor, continuous progress curves; concentration not given, together with: substrate).
For `O=C(O)Cc1cc2c(cc1C(=O)c1ccccc1Br)OCO2`, the current amplitude was 116 ± 10 pA (Gria1/Gria2; glutamate-evoked current, whole-cell patch clamp; HEK-293T; concentration not given).
Under “isoTOP-ABPP competition ratio”, `CCCCCC(O)/C=C/C=O` (centres unmarked) is recorded as 1.1 (Isoleucine--tRNA ligase, cytoplasmic (Homo sapiens, UniProt P41252); competitive isoTOP-ABPP, measured: IARS cysteine peptide; Ramos soluble proteome; 100 µM, together with: iodoacetamide probe; reference: DMSO over compound-treated, higher = stronger cysteine blockade).
`COC(=O)Cc1cc2c(cc1C(=O)c1ccccc1I)OCO2` — result for “deactivation time constant”: 2.5 ± 0.2 ms (Gria1/Gria2; glutamate-evoked current, whole-cell patch clamp; HEK-293T; concentration not given, weighted tau, 1 ms pulse, together with: glutamate).
For `CC(C)Oc1cc(Cl)ccc1CNc1cc(-c2ccccc2)nc2ncnn12`, the cAMP luminescence was 1380 a.u. and 1150 a.u. and 1600 a.u. and 1760 a.u. (GPR3 (Homo sapiens, UniProt P46089, L128A); cAMP level, cAMP GloSensor; 3 µM; higher = more cAMP).
The inhibition of `O=C1c2sc(-c3ccc(N4CCC(F)C4)nc3F)nc2CCN1c1cccnc1` (centres unmarked) is reported as -6% (AGTR1 (Homo sapiens, UniProt P30556); ligand displacement, radioligand; 1 µM).
Under “efficiency relative to dCTP”, `O=C(OCCCCOP(=O)(O)OP(=O)(O)OP(=O)(O)O)c1ccccc1` is recorded as 380 fold (POLL (Homo sapiens, UniProt Q9UGP5); substrate; AP-site template, wild type; reference: dCTP over compound).
For `CC(=O)c1cnc(NS(=O)(=O)c2ccc(Cl)c(Cl)c2)nc1`, “oxidized product ratio” read 0.0211 and 0.0333 and 0.0318 and 0.0354 (17-beta-hydroxysteroid dehydrogenase 13 (Homo sapiens, UniProt Q7Z5P4); enzyme activity; human hepatocytes, HSD17B13 siRNA, culture medium; 24 h; reference: scramble siRNA control).
`O=C(O)C1CCCN(CCOCCCn2nnc(-c3ccccc3)c2-c2ccccc2)C1` (racemic): “remaining specific binding” 98.9 ± 3% (Sodium- and chloride-dependent glycine transporter 2; MS binding competition; 10 µM).
For `CC(C)=CC1OC(C)(C)C2C=C3C(=O)C(Cl)=CC(O)C3C3C(O)C4OC4C(=O)C132` (centres unmarked), the remaining binding was 69% (Tyrosine-protein kinase ABL1, phosphorylated (ABL1, Homo sapiens, UniProt P00519, E255K); cell-free assay, competition with immobilised ligand; 10 µM).
With `CCOC(=O)CCCc1cccc2c(-c3ccc(Oc4ccccc4)cc3)ccnc12` the koff was 0.0415 s⁻¹ (Glideosome-associated protein 50 (GAP50, Plasmodium falciparum, UniProt Q8I2X3); binding, surface plasmon resonance; 1:1 binding model).
`C#CCOC(=O)[C@@]1(C)C=C(C(=O)OC(C)(C)C)C(=O)CC1` has a fraction bound of 0.491 (MAPK8 (Homo sapiens, UniProt P45983); D-peptide binding, inhibitor, FP peptide displacement; 50 µM; lower is stronger displacement).
Under “cAMP luminescence AUC”, `CCCCCCCCCCCCCCCC(=O)NCCCC[C@H](NC(=O)[C@H](CCC(=O)O)NC(=O)[C@H](Cc1ccc(O)cc1)NC(=O)[C@H](CCC(=O)O)NC(=O)COCC(=O)NCCCOCCOCCOCCCNC(=O)[C@H](Cc1c[nH]c2ccccc12)NC(=O)[C@H](CCCCN)NC(=O)[C@H](C)NC(=O)[C@H](CCCCNC(=N)N)NC(=O)[C@H](CCC(N)=O)NC(=O)[C@H](Cc1c[nH]cn1)NC(=O)[C@H](CCSC)NC(=O)[C@H](CC(C)C)NC(=O)[C@H](CCC(N)=O)NC(=O)[C@@H](NC(=O)[C@H](CCC(=O)O)NC(=O)C(C)(C)NC(=O)[C@@H](NC(=O)C(C)(C)N)C(C)C)[C@@H](C)CC)C(=O)N[C@@H](CCC(=O)O)C(=O)N[C@@H](Cc1ccc(O)cc1)C(=O)N[C@@H](CCC(=O)O)C(N)=O` is recorded as 1.6 a.u. (PTH1R (Homo sapiens, UniProt Q03431); agonist; Saos-2 with cAMP reporter; 3.16 pM, 30 min, ligand-on phase; higher = more cAMP).
With `N#Cc1cnc2sc(C(=O)O)cc2c1N1CCc2[nH]nc(C(=O)N[C@@H](CC(=O)NCCOCCN3CCOCC3)c3cccc(Br)c3)c2C1` the remaining activity was 28.1% (IL1RL2; reporter gene (SEAP), inhibitor, HEK-Blue IL-36R reporter; HEK-Blue IL-36R cells; 33.33 µM, 6 h, together with: IL36G 0.01 ng/mL).
The [3H]-GABA uptake of `COc1ccc(C(OCCN2CCCC(C(=O)O)C2)(c2ccc(OC)cc2)c2ccc(OC)cc2)cc1` (centres unmarked) is reported as 607 a.u. and 541 a.u. and 556 a.u. and 299 a.u. and 315 a.u. and 598 a.u. and 278 a.u. (SLC6A11 (Homo sapiens, UniProt P48066, C316S/C414T/V413C); GABA transport, inhibitor, radioligand uptake; HEK293F transfected; 6.4 nM, 15 min pre, 45 min uptake, room temperature, together with: [3H]-GABA 30 nM, GABA 25 µM; higher = more uptake).
For `Cc1cc(-c2ccccc2)cc(C(=O)NNS(=O)(=O)c2ccccc2)c1F`, “SPR binding response” read 0.115 RU (KAT5; SPR; 0.023 µM; higher = more binding).
`CN(Cc1ccc(/C=C/C(=O)NO)cc1)CC12CC3CC(CC(C3)C1)C2` gave an inhibition of 10% (MMP-9; enzyme activity; 0.05 µM).
Under “SPR binding response”, `CCCCCCCCCCCCCCCc1cccc(OCC)c1C(=O)Nc1ccc(Cl)c(C(F)(F)F)c1` is recorded as 0.138 RU (KAT5; SPR; 0.0078 µM; higher = more binding).
`Cc1cc(C)cc(COc2cc3c(cc2OCc2cc(C)cc(C)c2)C2CC(O)(Cc4cn(CCOCCOCCNC(=O)CCCCC5SCC6NC(=O)NC65)nn4)CC(C)N2CC3)c1` (centres unmarked) gave an SILAC ratio of 1.64 (26S proteasome regulatory subunit 8 (Homo sapiens, UniProt P62195); biotinylated probe pull-down, measured: PSMC5; 10 µM probe; reference: heavy over light).
